Assay results collected from several papers.
Each numbered part is a random draw from the data of one study; scales do not carry over between parts. Substitutions count along the parent as printed.

Series 1 — technique: RNA Bind-n-Seq; form: RNA; matrix: in vitro; tested at: not given; reference: input RNA pool; reading: higher = stronger binding; endpoint: bound/input enrichment
Target: RING finger protein unkempt homolog, zinc fingers 1-6, GST-SBP tag (UNK, Homo sapiens, UniProt Q9C0B0, residues 30-357)
Sequence of UniProt Q9C0B0 (30-357, looked up): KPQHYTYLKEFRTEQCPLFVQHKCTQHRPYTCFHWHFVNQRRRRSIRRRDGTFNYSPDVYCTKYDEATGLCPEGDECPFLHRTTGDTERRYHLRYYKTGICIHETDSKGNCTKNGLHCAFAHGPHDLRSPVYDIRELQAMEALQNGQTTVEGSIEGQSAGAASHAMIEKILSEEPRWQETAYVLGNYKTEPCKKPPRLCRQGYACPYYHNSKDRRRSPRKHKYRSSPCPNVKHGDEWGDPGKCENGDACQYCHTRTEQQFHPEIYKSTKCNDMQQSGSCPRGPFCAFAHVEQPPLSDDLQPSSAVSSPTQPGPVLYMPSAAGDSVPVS
Notes: RNA with constant flanks, human and mouse sites, ends assumed
Constant ends, left off below: GGGAGUUCUACAGUCCGACGAUC … CAACAGAGGAUUGAGCAUCA
GUCGGAGACCUGAGAGAUGUUAACCAAAUUCGAGACCAAGAGCGCGCGGGUCAAAGGGCUCAGCUUUCACCCCAAAAGACCUUGGAUCCUGACUAGUUUACAUAAUGGGGUCAUCCAGUU: 0.407 ratio
GCUGCUUUCCACAGUUUGGUGGGGCUGGCAGCAGUUCUUACCUGCAUGGCCGAGUACAUCGUAGAGUAUCCACAUUUUGCAAUGGAUGCCACGUCAAAUUUCACCAAGAUUGUGGCUUAC: 0.117 ratio
CCAUUAAAACAGCAAAUAAAACCCAGUGAAGCAUUUUUUAAAGACUAACAGCUUAAUUAAUUUAGAUAUACUUUAAGAGAAAAACUAUUUUAUCCUUCAUGUGAAUAAUGAAUAACAGUA: 8.62 ratio
GCGCACGCGCGCCCCGCCCAGCCUGCUUUCCCUCCGCGCCCUCCCCUCUCCUUUCUCCCUCUCAGAACCUUCCUGCCGUCGCGUUUGCACCUCGCUGCUCCAGCCUCUGGGGCGCAUUCC: 0.384 ratio
AGUUUGGAUCUUGAUAGCUGCACUCUUUCAGAAAUCCUCAGACUGCACAUCUUAGCUUCAGGUGCUGAUGUAACAUCAGCAAAUGCAAAGUAUAGAUAUCAAAAACGAGGAGGAUUUGAU: 0.13 ratio
GUGCCCCGGCACCUCCGCGGGCGGCGCGCGUCGGGAUCGGCCGGAGCGGCGGCGUCUCCUUCGGCUGCGGCUGCGGGCGAGCGCCAGGCGCUGCUGACAGAUCCCUGUAUGUCGCUGAGU: 1.32 ratio
UGAGUUAUUUAAUCAAAACAAAUCUUAAAAUAUAGUUGCUCUUUACGUUUAAUCUUCAUUUUUUUCAGAUCUUAAGUUUCAGAUCUUACGAAUGUUGUACUUAUGUCUAAUUUGGGAAUG: 2.32 ratio
CGGCCAUCAUCUCCUGUCGCAGUUGCAGCUCUUGCUCAUCCUCCCUCUGGGCUCCAUCCAGCACCAUCUACUGCCCCGGGUCCCCAUGCUCCAUUAAUGCCUCCAUCUCCUCCAUCACAA: 0.538 ratio

Series 2 — technique: protein-binding microarray; form: hairpin DNA; matrix: in vitro; tested at: not given; reference: not given; reading: higher = stronger binding; endpoint: median fluorescence
Target: Microphthalmia-associated transcription factor, full length (MITF, Homo sapiens, UniProt O75030-10, residues 1-413)
Notes: whole hairpin DNA, median over replicate spots
GAGGCCTAGCACCGGCTGCCTCCTGGCAGCCGGTGCTAGGCCTCACACTC: 6190 a.u.
GAGGCCTCGCACGTGCTGCCTCCTGGCAGCACGTGCGAGGCCTCACACTC (5mC at 8 36): 17600 a.u.
GAGGCCTAGCGCGTGCTGCCTCCTGGCAGCACGCGCTAGGCCTCACACTC (5mC at 10): 10000 a.u.
CACTTAGCTCGTGATTTTGGTCCTCCAAAATCACGAGCTAAGTGACACTC: 15900 a.u.
GAGGCCTAGCACCGGCTGCCTCCTGGCAGCCGGTGCTAGGCCTCACACTC (5mC at 31): 5790 a.u.
CACTTAGCACGTGTTTTTGGTCCTCCAAAAACACGTGCTAAGTGACACTC: 20000 a.u.
GAGGCCTCGCACGTGCTGCCTCCTGGCAGCACGTGCGAGGCCTCACACTC (5mC at 8): 19700 a.u.
CACTTACCACGTGATTTTGGTCCTCCAAAATCACGTGGTAAGTGACACTC: 25600 a.u.

Series 3 — target: CCND1, cyclin fold, Cln2 fusion (human); technique: yeast growth competition, sequencing; matrix: yeast; notes: strong parent motif; reference: not given; reading: higher = stronger binding; endpoint: normalised enrichment score
Parent: viral docking peptide; KGVKRKLFAEDSS; partner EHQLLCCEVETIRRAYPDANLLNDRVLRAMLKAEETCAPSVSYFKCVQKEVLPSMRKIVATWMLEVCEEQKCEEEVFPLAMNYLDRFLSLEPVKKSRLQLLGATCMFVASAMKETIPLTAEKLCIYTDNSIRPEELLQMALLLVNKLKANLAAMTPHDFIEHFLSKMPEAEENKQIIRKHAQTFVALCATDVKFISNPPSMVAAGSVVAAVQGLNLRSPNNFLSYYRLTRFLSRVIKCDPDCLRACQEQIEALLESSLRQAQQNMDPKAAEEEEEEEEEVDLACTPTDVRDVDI
KGGKRKLFAEDSS [V3G]: 0.437
KQVKRKLFAEDSS [G2Q]: 2.17
KGVKIKLFAEDSS [R5I]: 0.614
KGVKRKGFAEDSS [L7G]: 0.23
KGVKEKLFAEDSS [R5E]: 0.118
KGVKRKLFAESSS [D11S]: 0.888
KGVKRKLSAEDSS [F8S]: -0.439
KGVQRKLFAEDSS [K4Q]: 1.65
KGVDRKLFAEDSS [K4D]: 0.00898
KGVKRKNFAEDSS [L7N]: 0.0824
KGVKHKLFAEDSS [R5H]: -0.111
KGVKRKVFAEDSS [L7V]: 0.0575
KGVKRKLPAEDSS [F8P]: -0.0314
KGCKRKLFAEDSS [V3C]: 2.34
KGVKRKLFAIDSS [E10I]: 0.335
KGVKRKLMAEDSS [F8M]: -0.0822
KGVKRKTFAEDSS [L7T]: 0.168
KGVKRKLFAEESS [D11E]: 1.78
KGVIRKLFAEDSS [K4I]: 2.31
KGVKRKEFAEDSS [L7E]: 0.24
KYVKRKLFAEDSS [G2Y]: 0.703
KGVKRKLFAYDSS [E10Y]: 0.143

Series 4 — technique: RNA Bind-n-Seq; form: RNA; matrix: in vitro; tested at: 20 nM; notes: 6-mer, flanks averaged, single round; added: 150 mM LiCl; reference: input library; reading: higher = stronger binding; endpoint: 6-mer enrichment (R)
Target: TAR DNA-binding protein 43, full length, His tag (TARDBP, Homo sapiens, UniProt Q13148, residues 1-414)
CUCGAG: 0.86
UACACC: 0.985
UGGGUU: 1.2
CCGGGG: 1.1
GGUCAU: 0.903
AGACCC: 0.926
GUCCGG: 0.991
CCUCUU: 1.02

Series 5 — read-out: peptide-MHC binding; form: peptide; tested at: concentration not given; endpoint: binding
Target: HLA class I histocompatibility antigen, A alpha chain, allele A*80:01 (Homo sapiens, UniProt P04439)
FPASHMATY: inactive
ESEVDDPAM: inactive
DFISMYFPW: inactive
FHVNPAFVL: inactive
